# Measurements pooled from the literature.
# A part holds a random share of what one study measured.

# Study 1
# Target: RNA binding protein fox-1 homolog 2, RRM domain, GST-SBP tag (RBFOX2, Homo sapiens, UniProt O43251-10, residues 100-194)
# Technique: RNA Bind-n-Seq
# Form: RNA
# Medium: in vitro
# Tested at: 365 nM
# Setting: natural RNA segment, single round, ends assumed
# Relative to: no-protein control
# Reading: higher = stronger binding
# Shared flanks, not repeated: GGGAGUUCUACAGUCCGACGAUC … UGGAAUUCUCGGGUGCCAA
# Target sequence (chain): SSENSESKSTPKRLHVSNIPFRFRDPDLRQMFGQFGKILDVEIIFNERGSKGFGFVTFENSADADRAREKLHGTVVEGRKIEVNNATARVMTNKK
Strand,RBNS enrichment (R)
CUCACUGGAGAGAGCAAGCACAGGAAGCUGGCUGCAGUGCCUUCCUCAUGAAGGAUCUACCACAACCCUGGCCUUUUUAAAACUGAGAGUAGCAGAAUUAAUAGAGAAAU,0.404
GAUUUGAGCCCUACUAAGUGACUGACCACUGUUUAGAGUGUCUGGUAUCUGAUGUUCAUUUAUUCCCAUGUUCUUGUGUGUCACAGUUCAGCCAGUUUUGGUUUAUGCCU,0.556
UUAGACUUAUUUUCUAGUGGCUUCAACACAUGUUCCAACUUGAAUUUUUUUCUUUUCUUCUUUAAGUAGCUGAAUGUAUAUAUCAGGGAGGAAGAAGCAAGCAAAACUGA,0.427
UGUCUGCUUAACAAACUGUCUUUGUGAGUACAGAGAUUGGGUUUACCACUUCUGCUGAGGAGACCACUUAAAAUUCAUUCCUGAGUUUCCACUGUGGGAGAAUACCCAUG,0.311
UGCUUCUGGAUUCUCACCUUCACAGGGAGUUUCUUCCCGCCUCGGCCUUCUGGACAUGUCCUCUGUCCUGCCUCAGAGAGCUUUGCCUGGCUCCACCUCCUCUCCUGAGU,0.372
CACGAGGGGGCUUUGAUGGCCCUGGAGAUCCUACAGUAAAUAAACCAGCAUCCUGCCGCCCAAAGCCGCCUCUUCUCAGUUGCCAAACGAGGGGCCUGCCCCCCGCCCUA,0.435
UUUUUUUAGAUUAUUUGGUGUACGGUUUUGCUCACAACAAUAGGUGGAAGUUGCUAGUGCAGUCUUGGUCUGAUGGCUGUGUGCAUCGCACAUUCGGCUUGGUGAAAUCC,0.454
GGUGUUCUGGGUCCCAGCCUUGUCUUAUCGCCUGUCCUGUCAGUGUCCAACCACACGGUGGCUUGGUGGGGUCACUCAGCUGCUAUGGGACAGCACAUGUGGGAAGUCAA,0.353

# Study 2
# Target: Ras GTPase-activating protein-binding protein 1, RRM domain (G3BP1, Homo sapiens, UniProt Q13283)
# UniProt Q13283, sequence (whole entry, looked up): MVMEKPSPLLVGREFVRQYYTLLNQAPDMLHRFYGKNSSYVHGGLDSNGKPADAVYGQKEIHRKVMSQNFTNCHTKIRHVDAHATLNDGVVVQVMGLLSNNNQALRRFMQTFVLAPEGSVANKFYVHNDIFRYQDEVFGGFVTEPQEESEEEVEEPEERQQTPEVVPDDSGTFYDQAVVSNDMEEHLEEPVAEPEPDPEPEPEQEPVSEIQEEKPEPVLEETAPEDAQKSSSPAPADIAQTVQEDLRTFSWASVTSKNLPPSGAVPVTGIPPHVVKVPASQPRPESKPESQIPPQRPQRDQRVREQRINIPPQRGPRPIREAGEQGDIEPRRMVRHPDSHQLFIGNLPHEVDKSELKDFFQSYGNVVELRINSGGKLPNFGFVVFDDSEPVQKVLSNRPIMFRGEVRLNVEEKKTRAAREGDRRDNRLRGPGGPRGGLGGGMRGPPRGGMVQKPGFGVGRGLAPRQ
# Technique: RNA Bind-n-Seq
# Form: RNA
# Medium: in vitro
# Tested at: 1 µM
# Setting: whole 134-nt RNA, ends assumed
# Together with: 150 mM KCl
# Relative to: input library
# Reading: higher = stronger binding
# Shared flanks, not repeated: GGGAGUUCUACAGUCCGACGAUC … UGGAAUUCUCGGGUGUCAAGG
Strand,log2 enrichment
UAGUCCAGCAUCAAGAUUCGCCGGCCUGGAUACAAAUCAGCGACUUACAGCUUUAGCUGAAGACAGACCGUUAUUUGAUGGACCUAGUAG,-0.243
AGUCCUGUGCUACACAUCGUAUGUACCGAAUCGGAAAAAGGGAAAAAGGAAAAAGGGGAAAGUAUUAUGUUACGCCGUUCGGAUCUGCAC,-0.00933
GCAGGAAGUAAAAACAAAUGGAAAUGCUUCGGAUAGUGGCAGGGGUGGGGGUUGCUAAGGAAAGGGUGGGAUGGCAGUGGGUAAAGAGUU,1.03
CAAGUCCUGUGCUACACAUCGUAUGUACCGAAUCGGGUGGGUUUUUGGGAAAGGGAAAGUAUUAUGUUACGCCGUUCGGAUCUGCACUUC,0.676
UGUGCUACACAUCGUAUGUACCGAAUCGGGGAAAAAAAGGGGAAAAAAAGGGAAAAAAAGGGGAAAGUAUUAUGUUACGCCGUUCGGAUC,0.116
UGGCCCUGGUGGCAUGCGGGGAAGAAGAGGUGGCCUCAUGGAUCGUGGUGGUCCCGGUGGAAUGUUCAGAGGUGGCCGUGGUGGAGACAG,0.972
CCUGUGCUACACAUCGUAUGUACCGAAUCGGGGAAAAAGGGGUUUUUGGGGUUUUUGGGGAAAGUAUUAUGUUACGCCGUUCGGAUCUGC,0.955
CCUGUGCUACACAUCGUAUGUACCGAAUCAAACCCCCCCAAAUUUUUAAAUUUUUUUAAAAAAGUAUUAUGUUACGCCGUUCGGAUCUGC,-0.565
AAGUCCUGUGCUACACAUCGUAUGUACCGAAUCGGGGUUUGGGGUUUGGGUUUGGGGAAAGUAUUAUGUUACGCCGUUCGGAUCUGCACU,0.461

# Study 3
# Target: Sal-like protein 4, full length isoform A (SALL4, Homo sapiens, UniProt Q9UJQ4, residues 1-1053)
# UniProt Q9UJQ4, sequence (whole entry, looked up): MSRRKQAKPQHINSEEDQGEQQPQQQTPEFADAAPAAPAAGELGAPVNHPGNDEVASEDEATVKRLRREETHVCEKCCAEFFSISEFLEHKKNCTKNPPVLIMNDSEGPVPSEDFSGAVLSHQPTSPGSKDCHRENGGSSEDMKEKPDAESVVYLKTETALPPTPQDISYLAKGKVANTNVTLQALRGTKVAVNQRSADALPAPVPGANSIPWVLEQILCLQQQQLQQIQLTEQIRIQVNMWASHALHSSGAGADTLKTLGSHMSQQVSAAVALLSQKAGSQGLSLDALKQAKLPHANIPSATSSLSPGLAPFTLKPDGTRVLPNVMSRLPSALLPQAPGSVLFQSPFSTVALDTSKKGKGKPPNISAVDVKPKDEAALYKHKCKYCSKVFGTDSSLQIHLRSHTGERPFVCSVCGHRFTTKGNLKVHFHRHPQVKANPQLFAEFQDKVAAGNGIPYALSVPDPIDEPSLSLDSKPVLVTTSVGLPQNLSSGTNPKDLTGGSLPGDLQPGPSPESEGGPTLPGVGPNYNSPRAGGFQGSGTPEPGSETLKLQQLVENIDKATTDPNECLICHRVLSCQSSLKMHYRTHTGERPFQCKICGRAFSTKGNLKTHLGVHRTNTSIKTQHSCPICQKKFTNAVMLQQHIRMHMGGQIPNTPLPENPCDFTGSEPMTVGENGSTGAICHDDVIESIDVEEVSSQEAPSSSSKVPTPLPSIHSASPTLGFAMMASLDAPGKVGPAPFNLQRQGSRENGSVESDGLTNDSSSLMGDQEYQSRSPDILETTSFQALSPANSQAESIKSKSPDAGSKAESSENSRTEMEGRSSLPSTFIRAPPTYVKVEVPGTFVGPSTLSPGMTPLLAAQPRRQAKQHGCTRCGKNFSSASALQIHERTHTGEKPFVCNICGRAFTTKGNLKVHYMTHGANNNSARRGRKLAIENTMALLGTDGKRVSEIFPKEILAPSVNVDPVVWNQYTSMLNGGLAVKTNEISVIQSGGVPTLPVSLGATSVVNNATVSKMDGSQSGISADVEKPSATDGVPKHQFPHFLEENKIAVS
# Technique: universal PBM
# Form: double-stranded DNA, one strand shown
# Medium: in vitro
# Tested at: 600 nM
# Setting: 8-mer, flanks averaged, mean of replicates
# Reading: higher = stronger binding
Strand,E-score
AACGATAC,0.125
CGATAAGA,0.124
CTCGGCTC,-0.3
ACTATTCG,0.254
ACAAACGT,-0.00468
ACACGGAA,-0.0205
GCTCTACC,-0.186
CGATTTAA,0.203
CCACAACA,0.00113
AGTAGGAT,-0.0237
GTTATTAA,0.439
GGACCTGA,-0.204
GAGGTTAC,-0.0329
ATATCCGG,-0.0374
CACCTCTC,-0.0834
GTAACCCA,0.0875
ACTTTCTG,0.0475
GTTAGGTA,0.158
CCAAAACA,0.152
AGTGTGAA,0.262
AATGTGAA,0.323
CGCTGGTC,-0.31

# Study 4
# Target: Interferon regulatory factor 7, full length, phosphomimetic (IRF7, Homo sapiens, UniProt Q92985, residues 1-503, S471D/S472D/S475D/S476D/S477D/S483D/S484D/S487D)
# UniProt Q92985, sequence (whole entry, unmodified, looked up): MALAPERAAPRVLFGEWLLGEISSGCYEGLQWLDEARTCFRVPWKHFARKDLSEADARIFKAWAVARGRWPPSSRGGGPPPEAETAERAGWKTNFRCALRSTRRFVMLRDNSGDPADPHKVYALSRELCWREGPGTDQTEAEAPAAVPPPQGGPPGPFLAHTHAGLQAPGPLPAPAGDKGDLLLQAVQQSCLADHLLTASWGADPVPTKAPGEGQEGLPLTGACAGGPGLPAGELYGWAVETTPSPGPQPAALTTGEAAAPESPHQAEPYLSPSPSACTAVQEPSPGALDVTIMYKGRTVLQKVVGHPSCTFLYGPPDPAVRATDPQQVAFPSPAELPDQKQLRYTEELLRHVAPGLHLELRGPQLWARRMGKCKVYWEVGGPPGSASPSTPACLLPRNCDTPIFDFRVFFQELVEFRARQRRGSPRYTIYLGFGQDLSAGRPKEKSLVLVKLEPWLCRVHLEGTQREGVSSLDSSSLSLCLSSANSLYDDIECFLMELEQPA
# Technique: protein-binding microarray
# Form: double-stranded DNA, one strand shown
# Medium: in vitro
# Tested at: 2200 nM top
# Setting: 60-bp whole probe
# Together with: salmon DNA 0.4 mg/ml
# Relative to: random background probes
# Reading: higher = stronger binding
# Shared flanks, not repeated: GCCTAGCAC … GTCTTGATTCGCTTGACGCTGCTG
Strand,fitted relative affinity [z-score]
GACGATTTCGGGTCTGGAGACGTGCTA,3.4
GACGATATCGGGGCTGGAGACGTGCTA,-0.0198
TCAGTTTTCTAATGTTTTACTGTGCTA,1.91
GACGGACTACTTCTCCTGACGTGCTAG,0.592
TAATTTTCATTTTCCAAATGGTGCTAG,7.08
TTAGGTCACGGTTTCGGTTAGTGCTAG,5.38
GCCGGTTTCCTTTTCCTGACGTGCTAG,6.72
GACGGTCTCTTACTGCTGACGTGCTAG,0.639
TTAGAACTGGGGACTGGATTCGTGCTA,-0.339
CTCAGGTAATATTTCCTGCTGTGCTAG,0.325
TCAACTTTCTACGTCTGACTGTGCTAG,2.13
GACGATTTCGGGTATCTAGACGTGCTA,2.76
TTAGGACTGCGTTTCCTTTAGTGCTAG,0.608
TCTCCTTTCGGAATACCCTCGTGCTAG,6.62
TTAGGTTCCTGTTTCGGTTAGTGCTAG,6.37
TTAGGACTGGGGTATTGGTTAGTGCTA,-0.261
CACTCTCTACATGTGTTTACGTGCTAG,2.02
TTAGGATTCGGTTTCGGTTAGTGCTAG,9.38
TTATGTCTCCTACTGCTTTAGTGCTAG,1.63

# For quick reference, copied from above (study 3):
Strand,E-score
CCACAACA,0.00113
AGTAGGAT,-0.0237
GTTATTAA,0.439
GGACCTGA,-0.204
GAGGTTAC,-0.0329
ATATCCGG,-0.0374
